Measurements from different studies.
Compare with care: the assays were run in different laboratories.

For Cc1cn([C@H]2O[C@@H](CO[P@@](=O)(N[C@@H](C)C(=O)OC(C)C)Oc3ccccc3)[C@H](O)[C@H]2F)c(=O)[nH]c1=O, “patients with ALT/AST elevation” read 0% (refers to: grade 1/2; human; 50 mg).
COc1ccc(-c2c(-c3ccc(C#N)c(F)c3)nc(N3CCC(N)CC3)n(C)c2=O)cc1F: “patients with serious TEAE” 2% (refers to: biliary tract infection; human patients; oral, dose not given, dose escalation).
C[C@]1(O)C[C@@](N)(c2ccc(-c3nc4n(c3-c3ccccc3)COc3ccncc3-4)cc2)C1 — result for “patients with Anemia TEAE”: 17.6% (human, advanced or metastatic solid tumours; dose not given, all patients, any grade).
C=CC(=O)Nc1cc(Nc2nccc(Nc3cc(Cl)c(F)cc3C(C)(C)O)n2)c(OC)cc1N1CC[C@@H](N(C)C)C1: “patients with anaemia” 33.3% (human patients; oral, 100 mg, treatment-emergent adverse events).
Under “patients grade ≥3 Hyperkalemia”, Cn1cncc1-c1c(F)cncc1NC(=O)c1c(N)nn2cc(F)cnc12 is recorded as 0% (human patients; oral, 150 mg twice daily, 4 days on 3 days off).
O=C1Nc2cc3[nH]nc(-c4ccncc4)c3cc2CN1Cc1ccccc1: “patients with photopsia” 33% (CTCAE v4.03; human, relapsed or refractory advanced solid tumours; intravenous, 7.2 mg/kg).
C[C@@H]1OC(=O)NN=C1c1ccc(-c2ccc(F)cc2)c(C(F)(F)F)c1 — result for “patients with adverse event”: 0% (phase I trial, refers to: Nausea all grades; human patients; 5 mg once daily).
For COc1ncnn2ccc(-c3cnc4nc(C)n(Cc5nnc([C@@H](C)F)o5)c4c3)c12, “patients with amylase increased” read 0% (human; oral, dose not given, grade 4).

For quick reference, copied from above:
C=CC(=O)Nc1cc(Nc2nccc(Nc3cc(Cl)c(F)cc3C(C)(C)O)n2)c(OC)cc1N1CC[C@@H](N(C)C)C1: “patients with anaemia” 33.3% (human patients; oral, 100 mg, treatment-emergent adverse events).
